Measurements gathered from unrelated publications.
Each numbered part is a random draw from the data of one study; scales do not carry over between parts. Values joined by “and” are separate records of one study, mostly repeats; a detail may differ.

Set 1
Target: Replicase polyprotein 1ab, polymerase (rep, Severe acute respiratory syndrome coronavirus 2, UniProt P0DTD1)
Effect on: enzyme activity
Action: inhibitor
Concentration: 20 µM
| SMILES | inhibition [%] |
| --- | --- |
| Nc1nc2[nH]cc(CCc3ccc(C(=O)N[C@@H](CCC(=O)O)C(=O)O)cc3)c2c(=O)[nH]1 | 30.3 |
| CC1=C(C(=O)Nc2cc3cn[nH]c3cc2F)C(c2ccc(C(F)(F)F)cc2)CC(=O)N1 (centres unmarked) | 2.65 |
| N#C/C(=C\c1ccc(O)c(O)c1)C(=O)NCCCc1ccccc1 | 99.1 |
| Cc1c(C2CCN(CCc3ccccc3)CC2)noc1-c1ccc(Cl)cc1 | 0.15 |
| OC(CCCN1CCN(c2ncc(F)cn2)CC1)c1ccc(F)cc1 (centres unmarked) | -0.96 |
| O=C(Oc1ccc(Br)cc1)N1CCN2CCC1CC2 | 2.16 |
| CC(C)CNc1nc(-c2cccc3ncccc23)cn2c(-c3ccc(C(=O)NC4CC4)cc3)cnc12 | -7.11 |
| CC(C)C[C@@H](C=O)NC(=O)[C@H](CC(C)C)NC(=O)[C@H](CC(C)C)NC(=O)OCc1ccccc1 | -1.34 |
| CCOc1ccccc1OCCN[C@H](C)Cc1ccc(OC)c(S(N)(=O)=O)c1 | -1.9 |
| O=C(NCc1ccc(F)cc1)N1CCN2C(=O)OC(c3ccccc3)(c3ccccc3)C2C1 (centres unmarked) | -4.76 |
| Cc1nccc2c1[nH]c1ccccc12 | -9.85 |
| C[C@@H](NC(=O)c1ncnc(N)c1Cl)c1ncc(C(=O)Nc2cc(C(F)(F)F)c(Cl)cn2)s1 | 3.47 |
| CC(CC(C(N)=O)(c1ccccc1)c1ccccc1)N(C)C (centres unmarked) | 0.45 |
| Cc1noc2c1-c1ccccc1C(c1ccc(Cl)cc1)=N[C@H]2CC(N)=O | -0.34 |
| CCN(CC)S(=O)(=O)c1ccc(C(=O)O)cc1 | -7.6 |
| Cc1nnsc1C(=O)Nc1ccc(-n2nc(C(F)(F)F)cc2C(F)(F)F)cc1 | -5.15 |
| CCCC(=O)O[C@]1(C(=O)CO)CC[C@H]2[C@@H]3CCC4=CC(=O)CC[C@]4(C)[C@H]3[C@@H](O)C[C@@]21C | 2.73 |
| C1CCC(N=C(NC23CC4CC(CC(C4)C2)C3)N2CCOCC2)CC1 | -12.9 |
| Nc1ccn([C@@H]2O[C@H](CO)[C@@H](O)C2(F)F)c(=O)n1 | -3.48 |
| O=C(Cn1c(=O)sc2ccc(Cl)cc21)N1CCN(CCO)CC1 | -9.35 |
| C[C@@H]1C[C@H]2[C@@H]3CCC4=CC(=O)C=C[C@]4(C)[C@@]3(Cl)[C@@H](O)C[C@]2(C)[C@@]1(OC(=O)c1ccco1)C(=O)CCl | 0.84 |
| C[C@@H](O)[C@@H]1NC(=O)[C@H](CCCCN)NC(=O)[C@@H](Cc2c[nH]c3ccccc23)NC(=O)[C@H](Cc2ccccc2)NC(=O)[C@@H](NC(=O)[C@H](N)Cc2ccccc2)CSSC[C@@H](C(=O)N[C@H](CO)[C@@H](C)O)NC1=O | -8.3 |
| O=C(NCc1ccc2c(c1)OCO2)c1c(Cl)cccc1Cl | 2.12 |
| C=CC1=C(C(=O)O)N2C(=O)[C@@H](NC(=O)/C(=N\OCC(=O)O)c3csc(N)n3)[C@H]2SC1 | -15.3 |
| CNS(=O)(=O)CCc1ccc2[nH]cc(C3CCN(C)CC3)c2c1 | 2.05 |

Set 2
Target: Centromere-binding protein 1, full length, N-terminal tag (CBF1, Saccharomyces cerevisiae, UniProt P17106, residues 1-351)
UniProt P17106, sequence (whole entry, looked up): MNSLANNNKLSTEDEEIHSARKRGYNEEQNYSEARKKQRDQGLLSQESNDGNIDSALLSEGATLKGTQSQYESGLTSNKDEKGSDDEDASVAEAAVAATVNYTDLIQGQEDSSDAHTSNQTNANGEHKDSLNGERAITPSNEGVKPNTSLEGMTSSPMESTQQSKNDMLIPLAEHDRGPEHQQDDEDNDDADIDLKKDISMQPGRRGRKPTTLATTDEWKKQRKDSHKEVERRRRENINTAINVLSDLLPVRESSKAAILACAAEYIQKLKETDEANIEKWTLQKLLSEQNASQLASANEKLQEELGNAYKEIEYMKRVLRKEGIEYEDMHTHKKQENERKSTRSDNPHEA
Method: protein-binding microarray
Molecule type: double-stranded DNA, one strand shown
Sample: in vitro
Concentration: 0.8 µM
Notes: whole 60-bp probe, no competitor
Direction: higher = stronger binding
Shared flanks, not repeated: … GTCTTGATTCGCTTGACGCTGCTG
| Oligonucleotide | fluorescence intensity |
| --- | --- |
| GAAGGGATGTGCTCCCACGTAATGCATTGTGCATAG | 465 a.u. |
| GAATTGTTAATCTGTGACTCAATGAAAAGGATCTAG | 580 a.u. |
| CTACTTCAAAAATGATACGTGCCATTTGATGGTTTC | 852 a.u. |
| GAAATTCAAATATATCACGTTGTGAGCAGCCCTTAG | 1140 a.u. |
| CTATTCGTTAAACGTGATTTAGCTATCGGAACCTTC | 1510 a.u. |
| TGTACGAAGCTATGATGTAAAATTATAGTAGTTAGG | 526 a.u. |
| CTACTATTATATTATCACGTACGGTATAAGAAGTTC | 724 a.u. |
| CTATCTAAGAGTTGCCGTGCCTTTCCATCCGCTTTC | 510 a.u. |

Set 3
Target: Ras GTPase-activating protein-binding protein 1, full length (G3BP1, Homo sapiens, UniProt Q13283)
UniProt Q13283, sequence (whole entry, looked up): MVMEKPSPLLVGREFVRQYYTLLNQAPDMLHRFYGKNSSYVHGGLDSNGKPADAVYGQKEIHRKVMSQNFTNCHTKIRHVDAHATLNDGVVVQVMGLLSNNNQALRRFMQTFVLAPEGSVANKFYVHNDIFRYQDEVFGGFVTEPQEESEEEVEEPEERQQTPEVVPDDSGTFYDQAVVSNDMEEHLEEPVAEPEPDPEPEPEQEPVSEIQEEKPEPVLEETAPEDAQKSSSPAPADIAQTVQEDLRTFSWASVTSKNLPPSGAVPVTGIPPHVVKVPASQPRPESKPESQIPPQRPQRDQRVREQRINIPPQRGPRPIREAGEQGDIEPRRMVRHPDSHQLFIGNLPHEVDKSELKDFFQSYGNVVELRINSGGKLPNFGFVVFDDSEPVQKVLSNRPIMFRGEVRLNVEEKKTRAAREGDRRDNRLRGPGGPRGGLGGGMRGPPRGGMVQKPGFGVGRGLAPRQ
Method: RNA Bind-n-Seq
Molecule type: RNA
Sample: in vitro
Concentration: 200 nM
Notes: whole 134-nt RNA, ends assumed
With: 150 mM LiCl
Baseline: input library
Direction: higher = stronger binding
All molecules: 7-deaza-guanosine replaces G
Shared flanks, not repeated: GGGAGUUCUACAGUCCGACGAUC … UGGAAUUCUCGGGUGUCAAGG
| Oligonucleotide | log2 enrichment |
| --- | --- |
| UGGCAGGAAAGAGUUCCUAGAGAGAGAAGACAAAGACAGUCUGUGUUGCAAAAGAAGCCCAAGGCUGAAGAUUUAAGAACUGAAUGUGCA | -1.82 |
| UUUCUUCCCCCACAGUUCAUCCAUGAGCUCGGAUUUCCCACAUUACAACUUCAGGAUGCCUAAUAUUGGAUUCCAGAAUCUGCCUCUCAA | 1.6 |
| CAAGUCCUGUGCUACACAUCGUAUGUACCGAAUCGGUUUUUGGUUUGGAAAAAGGAAAGUAUUAUGUUACGCCGUUCGGAUCUGCACUUC | -1.44 |
| UCCUGUGCUACACAUCGUAUGUACCGAAUCGGGGAAAAAGGGGAAAGGGGUUUUUGGGGAAAGUAUUAUGUUACGCCGUUCGGAUCUGCA | 0.681 |
| CCUGUGCUACACAUCGUAUGUACCGAAUCGGGGUUUUUUUGGGGUUUUUGGGGUUUGGGGAAAGUAUUAUGUUACGCCGUUCGGAUCUGC | 0.236 |
| AGUCCUGUGCUACACAUCGUAUGUACCGAAUCAAAUUUUUUUAAAUUUAAACCCAAAAAAGUAUUAUGUUACGCCGUUCGGAUCUGCACU | -0.452 |
| CCUCAAGUCCUGUGCUACACAUCGUAUGUACCGAAUCGGGAGGGAGGGUGGGAAAGUAUUAUGUUACGCCGUUCGGAUCUGCACUUCCAG | -0.508 |
| UGAGAAACUUGCUCAAAUAUUGGCAGCUAGACAGUUAGAAAUUAAACAGAUUCCAUCUGAUGGCCACUGUAUGUAUAAAGCCAUUGAAGA | -1.57 |

Set 4
Organism: Vesicular stomatitis virus
Effect on: pseudovirus infection
Method: FDA-approved drug library screen
Concentration: concentration not given
Notes: SARS-CoV-2 spike pseudotype
Baseline: vehicle
| Compound | GFP-positive cells |
| --- | --- |
| CC(=O)[C@@]1(O)CC[C@H]2[C@@H]3CCC4=CC(=O)CC[C@]4(C)[C@H]3CC[C@@]21C | 106% |
| C[C@@H]1[C@H](O)[C@@H](C)/C=C/C=C/CC/C=C/C=C/C=C/C=C/[C@H](O[C@H]2O[C@@H](C)[C@H](O)[C@@H](N)[C@H]2O)C[C@@H]2O[C@](O)(C[C@@H](O)[C@H](O)CC[C@@H](O)C[C@@H](O)C[C@@H](O)CC(=O)O[C@H]1C)C[C@H](O)[C@H]2C(=O)O | 95.8% |
| COc1ccccc1OCCNCC(O)COc1cccc2[nH]c3ccccc3c12.O=P(O)(O)O (centres unmarked) | 34.1% |

Set 5
Target: Replicase polyprotein 1ab, main protease (rep, Severe acute respiratory syndrome coronavirus 2, UniProt P0DTD1)
Effect on: enzyme activity
Action: inhibitor
Concentration: 20 µM
Notes: hit confirmation, with DTT
| SMILES | inhibition |
| --- | --- |
| CCOC(=S)SSC(=S)OCC | 1.4% |
| CC(C)(C)c1ccc(S(=O)(=O)/C=C/C#N)cc1 | -7.9% |
| COc1ccc2[nH]c([S+]([O-])Cc3ncc(C)c(OC)c3C)nc2n1 (centres unmarked) | -9.8% |
| O=C(/C=C/c1ccc(O)c(O)c1)O[C@H](Cc1ccc(O)c(O)c1)C(=O)O | -29.4% and -17.8% |

Set 6
Target: TAR DNA-binding protein 43, full length, His tag (TARDBP, Homo sapiens, UniProt Q13148, residues 1-414)
Method: RNA Bind-n-Seq
Molecule type: RNA
Sample: in vitro
Concentration: 20 nM
Notes: 6-mer, flanks averaged, single round
With: 150 mM LiCl
Baseline: input library
Direction: higher = stronger binding
| Oligonucleotide | 6-mer enrichment (R) |
| --- | --- |
| AACAAG | 0.889 |
| AUCUAA | 0.831 |
| CGUCAU | 0.898 |
| GCUGCA | 0.953 |
| GAAUCG | 0.911 |
